Published values gathered from unrelated publications.
Compare with care: the assays were run in different laboratories. Numbers after ± are the reported error.

With `CS(C)(=O)=Nc1ccc(-c2ccc(-c3nc4cc(O[C@@H]5CO[C@H]6[C@@H]5OC[C@H]6O)[nH]c4cc3F)cc2)cc1` the EC150 was 0.45 ± 0.1 µM (L6 rat myoblasts; ACC phosphorylation, activator, ELISA; 30 min).
The EC50 of `CC[C@H](C)[C@H](NC(=O)CNC(=O)[C@H](CC(C)C)NC(=O)CNC(=O)[C@H](CCCCN)NC(=O)[C@H](CCC(=O)O)NC(=O)[C@H](CCCCN)NC(=O)[C@@H](NC(=O)[C@H](Cc1ccccc1)NC(=O)[C@H](CC(=O)O)NC(=O)[C@H](CCCCN)NC(=O)[C@H](C)NC(=O)[C@H](CCCCN)NC(=O)[C@H](CC(N)=O)NC(=O)[C@H](CC(C)C)NC(=O)[C@H](Cc1c[nH]c2ccccc12)NC(=O)[C@H](CC(=O)O)NC(=O)[C@H](CCCCN)NC(=O)[C@@H](NC(=O)CNC(=O)[C@H](C)N)[C@@H](C)O)[C@@H](C)CC)C(=O)N[C@@H](CC(C)C)C(=O)N[C@@H](CO)C(=O)N[C@@H](C)C(=O)N[C@@H](C)C(=O)N[C@@H](C)C(=O)N[C@@H](CC(N)=O)C(=O)N[C@@H](C)C(=O)N[C@@H](C)C(=O)N[C@H](C(=O)N[C@@H](CC(N)=O)C(=O)O)[C@@H](C)CC` is reported as over 100 µM (F11 cells; intracellular calcium, FLIPR; 0.1% BSA).
With `CCCCCCCC(=O)SCCC=CC1CC(=O)NCc2nc(cs2)C2=NC(C)(CS2)C(=O)NC(C(C)C)C(=O)O1` (stereo not shown) the GI50 was over 10 µM (HLF; cell growth or viability).
The GI50 of `COc1cc(C)c(OC)c(OC)c1OC` is reported as over 250 µM (T47D; cell growth or viability; 72 h).
For `CC[C@@]1(O)C(=O)OCc2c1cc1n(c2=O)Cc2cc3cc(OC(=O)CCCC(=O)NCC(=O)N[C@@H](Cc4ccccc4)C(=O)N[C@@H](Cc4ccccc4)C(=O)N[C@@H](Cc4ccc(OP(=O)(O)O)cc4)C(=O)NCCSSCCNC(=O)CCC(=O)N[C@@H](CCC(=O)O)C(=O)N[C@@H](CCCNC(=N)N)C(=O)NCC(=O)N[C@@H](CC(=O)O)C(=O)O)ccc3nc2-1`, the spheroid volume was 20% (HepG2 spheroids; 100 µM, 7 days; baseline: initial).
For `CCCc1cc(OC)c2c(c1)OCO2`, the GI50 was over 250 µM (T47D; cell growth or viability; 72 h).
Under “V1/2 of fast inactivation”, `COC[C@@H](NC(C)=O)C(=O)NCc1ccc(-c2cccc(I)c2)cc1` is recorded as -76.5 ± 1.3 mV (CAD; Na+ current, patch clamp; 10 µM).
Under “exosomal marker level”, `CN1c2ccc(OC(=O)Nc3ccncc3)cc2C2(C)CCOC12` (stereo not shown) is recorded as “decreased” (donor cells; Western blot, measured: CD63, CD81, syntenin-1; extracellular vesicles; concentration not given; baseline: DMSO).
With `CCC[P+](c1ccccc1)(c1ccccc1)c1ccccc1` the GI50 was 10.2 µM (A-375; cell growth or viability, MTT; 72 h).
`CC(N)C(O)CCCCCCCCCCCCCCC(=O)CCCCCCCC(O)C(C)N` (stereo not shown) gave a selectivity index of 2 (HCC70; cytotoxicity, resazurin; baseline: MCF-12A over HCC70).
With `CNC(=O)c1cc(Oc2ccc(NC(=O)c3cc(-c4cccc(COC(=O)CCC(=O)OC5OC6OC7(C)CCC8C(C)CCC(C5C)C68OO7)c4)ccn3)cc2)ccn1` (stereo not shown) the selectivity ratio was 6.5 (HepG2 and LO2; cell viability, MTT; 72 h; baseline: IC50 LO2 over IC50 HepG2).
`CC/C=C\C/C=C\C/C=C\C/C=C\C/C=C\C/C=C\CCC(=O)Nc1ccn(C2OC(CO)C(O)C2(F)F)c(=O)n1` (stereo not shown) has a CC50 of 42.1 µM (SK-MEL-5; NCI60 screen).
The CC50 of `C=C1C(=O)O[C@H]2[C@H]1CCC(COC(=O)c1cn[nH]c1-c1ccccc1)=C1CC[C@@](C)(O)[C@@H]12` is reported as 8.6 µM (M9-ENL1 leukaemia cells; annexin V/7-AAD flow cytometry; 24 h, 5% human plasma).
The resistance factor of `Cc1cc(C)c(-n2ccn(-c3c(C)cc(C)cc3C)c2=[Se])c(C)c1.[Cl][Au]` is reported as 0.8 (A2780 ADR; MTT; baseline: A2780 ADR over A2780).
The GI50 of `COc1cc(C)cc2c1OCO2` is reported as over 250 µM (A-375; cell growth or viability, MTT; 72 h).
Under protein level, `C[C@H](NC(=O)[C@H](CCCNC(=N)N)NC(=O)[C@H](CCC(=O)O)NC(=O)[C@H](CCCNC(=N)N)NC(=O)[C@H](CCCNC(=N)N)NC(=O)[C@@H](NC(=O)[C@H](CCCNC(=N)N)NC(=O)[C@H](C)NC(=O)[C@H](CCCNC(=N)N)NC(=O)[C@H](CCC(=O)O)NC(=O)[C@@H](N)CCCNC(=N)N)[C@@H](C)O)C(=O)N[C@@H](CCCNC(=N)N)C(=O)N[C@H](C(=O)N[C@@H](CCCNC(=N)N)C(=O)N[C@@H](CCC(=O)O)C(=O)N[C@@H](CCCNC(=N)N)C(=O)N[C@@H](C)C(=O)N[C@@H](CCCNC(=N)N)C(=O)N[C@H](C(=O)N[C@@H](CCCNC(=N)N)C(=O)O)[C@@H](C)O)[C@@H](C)O` is recorded as “decreased” (A-375; western blot, measured: VEGF165; 25 µM).
With `C[P+](c1ccccc1)(c1ccccc1)c1ccccc1` the GI50 was 1.56 µM (DU-145; cell growth or viability, MTT; 72 h).
Under “caspase-3 positive cells”, `C[C@@H](O)[C@@H]1NC(=O)[C@H](CCCCN)NC(=O)CCCC(=O)NCCCC[C@@H](C(=O)NCC(=O)NCC(=O)N[C@@H](Cc2ccc(O)cc2)C(=O)NCC(=O)N[C@@H](CCCNC(=N)N)C(=O)N[C@@H](CCCCN)C(=O)N[C@@H](CCCCN)C(=O)N[C@@H](CCCNC(=N)N)C(=O)N[C@@H](CCCNC(=N)N)C(=O)N[C@@H](CCC(N)=O)C(=O)N[C@@H](CCCNC(=N)N)C(=O)N[C@@H](CCCNC(=N)N)C(=O)N[C@@H](CCCNC(=N)N)C(N)=O)NC(=O)[C@H](CCCCN)NC(=O)[C@H](CCC(=O)O)NC(=O)[C@H](CC(=O)O)NC(=O)CNC1=O` is recorded as 3.16% (Huh-7; apoptosis, flow cytometry; 40 µM, 16 h).
For `Cc1cc(Nc2nc(C[C@@]3(C(=O)O)CCN(Cc4cccc(Cl)c4F)[C@H](C)C3)cc(C)c2F)[nH]n1`, “lowest effective concentration” read 0.12 µM (NCI-H446; caspase-3/7 activity; 24 or 48 h; baseline: untreated).
`CC[C@H](C)[C@H](NC(=O)[C@H](CCC(=O)O)NC(=O)CNC(=O)[C@@H](NC(=O)[C@H](CC(C)C)NC(=O)[C@H](CC(C)C)NC(=O)[C@H](CC(C)C)NC(=O)[C@H](CC(C)C)NC(=O)[C@H](CS)NC(=O)[C@H](CO)NC(=O)[C@H](Cc1ccccc1)NC(=O)CNC(=O)[C@H](CCCNC(=N)N)NC(=O)[C@@H]1CCCN1C(=O)[C@H](C)NC(=O)[C@H](CCSC)NC(=O)CNC(=O)CNC(=O)[C@H](Cc1ccccc1)NC(=O)[C@H](CCCCN)NC(=O)[C@H](Cc1c(C)cc(O)cc1C)NC(=O)[C@H](N)CCCNC(=N)N)[C@@H](C)O)C(=O)N[C@@H](CC(=O)O)C(=O)N[C@@H](CC(C)C)C(=O)N1CCC[C@H]1C(=O)N[C@H](C(=O)N[C@@H](CCCCN)C(=O)N[C@@H](CCCNC(=N)N)C(=O)N[C@@H](CCCNC(=N)N)C(=O)N[C@@H](C)C(N)=O)C(C)C` has a protein level of 111% (HT-22; western blot, measured: MTCO1; 10 µM, 24 h, together with: amyloid beta 42 2 µM; baseline: HNG plus SS-31).
`N=C(N)NCCC[C@H](NC(=O)[C@H](CCCNC(=N)N)NC(=O)[C@H](CCCNC(=N)N)NC(=O)[C@H](CCC(N)=O)NC(=O)[C@H](CCCNC(=N)N)NC(=O)[C@H](CCCNC(=N)N)NC(=O)[C@H](CCCCN)NC(=O)[C@H](CCCCN)NC(=O)[C@H](CCCNC(=N)N)NC(=O)[C@H](Cc1c[nH]c2ccccc12)NC(=O)[C@H](Cc1c[nH]c2ccccc12)NC(=O)[C@@H](N)CSSC[C@H](N)C(=O)N[C@@H](Cc1c[nH]c2ccccc12)C(=O)N[C@@H](Cc1c[nH]c2ccccc12)C(=O)N[C@@H](CCCNC(=N)N)C(=O)N[C@@H](CCCCN)C(=O)N[C@@H](CCCCN)C(=O)N[C@@H](CCCNC(=N)N)C(=O)N[C@@H](CCCNC(=N)N)C(=O)N[C@@H](CCC(N)=O)C(=O)N[C@@H](CCCNC(=N)N)C(=O)N[C@@H](CCCNC(=N)N)C(=O)N[C@@H](CCCNC(=N)N)C(=O)NCC(N)=O)C(=O)NCC(N)=O` has a tdTomato-positive cells of at least 50% (sample A primary mouse astrocytes; flow cytometry; 2.5 µM, 1 h, analysed 24 h after, together with: TAT-Cre 2 µM).
`COc1cc(C)c(OC)c2c1OCO2` has a GI50 of over 250 µM (T47D; cell growth or viability, MTT; 72 h).
The resistance factor of `[Cl][Au].[Se]=c1n(C2CCCCC2)ccn1C1CCCCC1` is reported as 0.7 (A2780 ADR; MTT; baseline: A2780 ADR over A2780).
The IC50 of `C=C(C(=O)O)[C@@H]1CC[C@@]2(C)CCC(=O)C(C)=C2[C@H]1O` is reported as over 10 µM (human Neutrophil; elastase release, inhibitor).
`CN1C(=O)C2(Cc3ccc(CC45SSC(CO)(C(=O)N4C)N(C)C5=O)cc3)SSC1(CO)C(=O)N2C` (racemic) — result for “number of inhibited genes”: 4 (MCF7; microarray; 600 nM, of 43 deferoxamine-induced genes ≥4-fold inhibited ≥2-fold, together with: deferoxamine).
`N=C(N)Nc1ccc(-c2nc3ccc(-c4ccc5nc(-c6ccc(NC(=N)N)cc6)[nH]c5c4)cc3[nH]2)cc1`: “DMPK mRNA level” “no effect” (sample A patient fibroblasts; RT-qPCR; concentration not given).
The GI50 of `C=CCc1cc(OC)c(OC)c(OC)c1OC` is reported as over 250 µM (T47D; cell growth or viability; 72 h).
For `CC[C@@]1(O)C(=O)OCc2c1cc1n(c2=O)Cc2cc3cc(OC(=O)CCCC(=O)NCC(=O)N[C@@H](Cc4ccccc4)C(=O)N[C@@H](Cc4ccccc4)C(=O)N[C@@H](Cc4ccc(O)cc4)C(=O)NCCS)ccc3nc2-1`, the spheroid volume was about 50% (HepG2 spheroids; 100 µM, 7 days; baseline: initial).

A few entries again:
With `CCC[P+](c1ccccc1)(c1ccccc1)c1ccccc1` the GI50 was 10.2 µM (A-375; cell growth or viability, MTT; 72 h).
`CC(N)C(O)CCCCCCCCCCCCCCC(=O)CCCCCCCC(O)C(C)N` (stereo not shown) gave a selectivity index of 2 (HCC70; cytotoxicity, resazurin; baseline: MCF-12A over HCC70).
With `CNC(=O)c1cc(Oc2ccc(NC(=O)c3cc(-c4cccc(COC(=O)CCC(=O)OC5OC6OC7(C)CCC8C(C)CCC(C5C)C68OO7)c4)ccn3)cc2)ccn1` (stereo not shown) the selectivity ratio was 6.5 (HepG2 and LO2; cell viability, MTT; 72 h; baseline: IC50 LO2 over IC50 HepG2).
`CC/C=C\C/C=C\C/C=C\C/C=C\C/C=C\C/C=C\CCC(=O)Nc1ccn(C2OC(CO)C(O)C2(F)F)c(=O)n1` (stereo not shown) has a CC50 of 42.1 µM (SK-MEL-5; NCI60 screen).
The CC50 of `C=C1C(=O)O[C@H]2[C@H]1CCC(COC(=O)c1cn[nH]c1-c1ccccc1)=C1CC[C@@](C)(O)[C@@H]12` is reported as 8.6 µM (M9-ENL1 leukaemia cells; annexin V/7-AAD flow cytometry; 24 h, 5% human plasma).
